# Experimental data of several laboratories.
# Numbered parts are unrelated; each lists some results of a single study. Values joined by “and” are separate records of one study, mostly repeats; a detail may differ.
# Chain of UniProt Q9UKI8 (whole entry, looked up): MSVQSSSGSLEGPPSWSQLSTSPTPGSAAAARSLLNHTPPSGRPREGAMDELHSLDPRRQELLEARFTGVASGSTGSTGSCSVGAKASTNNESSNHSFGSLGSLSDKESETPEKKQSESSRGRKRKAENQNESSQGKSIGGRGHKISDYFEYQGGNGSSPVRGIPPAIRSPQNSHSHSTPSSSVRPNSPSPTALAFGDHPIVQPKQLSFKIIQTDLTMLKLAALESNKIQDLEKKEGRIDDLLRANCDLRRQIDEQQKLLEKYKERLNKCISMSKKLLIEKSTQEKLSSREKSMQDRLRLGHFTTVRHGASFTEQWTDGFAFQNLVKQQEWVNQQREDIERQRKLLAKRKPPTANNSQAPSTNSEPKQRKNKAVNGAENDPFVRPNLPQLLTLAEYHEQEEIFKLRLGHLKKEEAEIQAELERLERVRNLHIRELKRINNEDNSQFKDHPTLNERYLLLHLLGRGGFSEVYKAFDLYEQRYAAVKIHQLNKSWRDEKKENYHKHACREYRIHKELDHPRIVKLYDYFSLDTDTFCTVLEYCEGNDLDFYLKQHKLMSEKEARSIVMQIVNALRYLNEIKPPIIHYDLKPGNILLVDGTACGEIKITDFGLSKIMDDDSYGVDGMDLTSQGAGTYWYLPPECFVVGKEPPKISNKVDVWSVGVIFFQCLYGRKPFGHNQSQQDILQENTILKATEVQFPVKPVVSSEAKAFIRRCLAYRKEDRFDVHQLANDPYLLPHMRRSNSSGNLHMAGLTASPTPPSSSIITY
# Chain of UniProt P15056 (whole entry, looked up): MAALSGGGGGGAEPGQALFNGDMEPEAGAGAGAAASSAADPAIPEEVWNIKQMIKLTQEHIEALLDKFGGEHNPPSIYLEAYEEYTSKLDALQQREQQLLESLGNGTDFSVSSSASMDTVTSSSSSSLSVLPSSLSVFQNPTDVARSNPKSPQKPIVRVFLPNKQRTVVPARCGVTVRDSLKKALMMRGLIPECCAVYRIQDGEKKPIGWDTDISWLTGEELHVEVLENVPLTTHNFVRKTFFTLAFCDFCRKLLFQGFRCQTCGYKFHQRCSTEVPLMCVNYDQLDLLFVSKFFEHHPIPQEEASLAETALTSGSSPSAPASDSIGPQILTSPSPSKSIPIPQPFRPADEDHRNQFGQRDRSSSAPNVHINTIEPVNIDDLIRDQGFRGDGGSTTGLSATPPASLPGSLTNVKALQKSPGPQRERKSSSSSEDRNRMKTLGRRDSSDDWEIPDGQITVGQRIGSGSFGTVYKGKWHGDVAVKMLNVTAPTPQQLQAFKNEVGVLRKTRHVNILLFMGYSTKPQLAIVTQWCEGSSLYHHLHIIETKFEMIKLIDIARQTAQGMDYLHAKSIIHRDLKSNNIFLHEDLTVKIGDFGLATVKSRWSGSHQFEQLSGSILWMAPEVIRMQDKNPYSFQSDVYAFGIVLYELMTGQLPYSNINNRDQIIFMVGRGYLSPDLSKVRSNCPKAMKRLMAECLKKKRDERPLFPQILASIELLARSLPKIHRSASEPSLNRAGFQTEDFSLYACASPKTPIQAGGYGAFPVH
# Chain of UniProt P29320 (whole entry, looked up): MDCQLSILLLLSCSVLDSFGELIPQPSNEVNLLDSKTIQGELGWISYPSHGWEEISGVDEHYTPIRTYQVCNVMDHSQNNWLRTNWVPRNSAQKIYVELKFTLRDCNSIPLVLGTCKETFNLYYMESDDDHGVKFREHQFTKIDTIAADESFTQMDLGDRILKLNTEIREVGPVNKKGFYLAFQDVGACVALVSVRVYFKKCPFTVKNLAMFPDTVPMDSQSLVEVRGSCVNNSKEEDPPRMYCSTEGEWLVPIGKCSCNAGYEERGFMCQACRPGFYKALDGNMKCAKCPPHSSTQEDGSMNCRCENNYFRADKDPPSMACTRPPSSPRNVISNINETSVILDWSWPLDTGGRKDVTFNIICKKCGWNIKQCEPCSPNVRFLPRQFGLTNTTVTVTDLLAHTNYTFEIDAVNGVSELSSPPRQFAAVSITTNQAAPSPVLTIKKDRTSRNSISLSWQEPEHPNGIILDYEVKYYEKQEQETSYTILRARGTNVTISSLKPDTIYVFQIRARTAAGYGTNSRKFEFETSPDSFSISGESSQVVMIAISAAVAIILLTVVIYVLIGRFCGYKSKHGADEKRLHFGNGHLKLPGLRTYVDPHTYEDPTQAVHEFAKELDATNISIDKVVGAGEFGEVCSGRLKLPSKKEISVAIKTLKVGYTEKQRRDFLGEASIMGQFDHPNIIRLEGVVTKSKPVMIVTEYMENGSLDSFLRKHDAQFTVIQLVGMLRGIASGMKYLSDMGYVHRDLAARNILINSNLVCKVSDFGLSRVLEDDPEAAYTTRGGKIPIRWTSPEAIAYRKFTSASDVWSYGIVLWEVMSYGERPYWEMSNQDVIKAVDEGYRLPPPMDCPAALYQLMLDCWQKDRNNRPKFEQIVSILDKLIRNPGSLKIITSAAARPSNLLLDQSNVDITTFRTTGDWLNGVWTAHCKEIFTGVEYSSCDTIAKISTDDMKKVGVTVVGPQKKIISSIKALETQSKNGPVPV
# Chain of UniProt P32298 (whole entry, looked up): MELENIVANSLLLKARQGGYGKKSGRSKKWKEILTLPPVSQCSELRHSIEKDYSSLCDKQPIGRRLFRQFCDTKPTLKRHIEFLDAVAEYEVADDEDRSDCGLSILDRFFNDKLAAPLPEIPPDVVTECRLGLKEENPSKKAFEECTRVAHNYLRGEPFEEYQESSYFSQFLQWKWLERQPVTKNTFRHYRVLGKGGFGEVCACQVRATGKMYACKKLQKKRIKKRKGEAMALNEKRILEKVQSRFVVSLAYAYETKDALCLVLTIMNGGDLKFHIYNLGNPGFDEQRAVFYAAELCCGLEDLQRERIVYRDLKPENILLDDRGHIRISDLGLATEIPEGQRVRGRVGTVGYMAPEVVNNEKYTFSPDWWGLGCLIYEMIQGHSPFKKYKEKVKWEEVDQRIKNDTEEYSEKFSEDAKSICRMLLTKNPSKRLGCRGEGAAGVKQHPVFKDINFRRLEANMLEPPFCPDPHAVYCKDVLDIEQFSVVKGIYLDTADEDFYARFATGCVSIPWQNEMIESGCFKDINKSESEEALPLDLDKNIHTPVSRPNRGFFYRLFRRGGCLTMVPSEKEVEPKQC
# Chain of UniProt Q04771 (whole entry, looked up): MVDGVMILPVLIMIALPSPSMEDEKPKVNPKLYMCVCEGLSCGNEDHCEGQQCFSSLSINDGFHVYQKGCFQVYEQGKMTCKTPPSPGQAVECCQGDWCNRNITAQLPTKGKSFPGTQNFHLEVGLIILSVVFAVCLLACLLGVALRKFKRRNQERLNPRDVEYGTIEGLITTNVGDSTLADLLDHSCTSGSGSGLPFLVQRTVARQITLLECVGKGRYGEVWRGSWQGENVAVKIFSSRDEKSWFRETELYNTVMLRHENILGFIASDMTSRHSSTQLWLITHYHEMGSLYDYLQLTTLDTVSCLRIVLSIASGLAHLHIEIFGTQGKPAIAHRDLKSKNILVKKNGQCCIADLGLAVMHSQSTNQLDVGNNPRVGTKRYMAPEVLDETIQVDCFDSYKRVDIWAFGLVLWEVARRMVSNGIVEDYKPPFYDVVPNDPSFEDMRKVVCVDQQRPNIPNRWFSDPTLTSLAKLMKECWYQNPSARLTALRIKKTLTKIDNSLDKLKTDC

# Set 1 — organism: Sarcocystis neurona; observed: parasite growth; concentration: 10 µM; time: 96 h; setting: first screen; baseline: untreated
Compound,log2 fold change
CC1(C)S[C@@H]2[C@H](/N=C/N3CCCCCC3)C(=O)N2[C@H]1C(=O)O,0.23
C=CCc1ccc(O)c(-c2ccc(O)c(CC=C)c2)c1,-0.1
C[C@]12C=CC(=O)C=C1CC[C@@H]1[C@@H]2[C@@H](O)C[C@@]2(C)[C@H]1CC[C@]2(O)C(=O)CO,0.25
Cc1ncc([N+](=O)[O-])n1CCO,0.000322
CC(C)(C)NC(=O)[C@@H]1C[C@@H]2CCCC[C@@H]2CN1C[C@@H](O)[C@H](Cc1ccccc1)NC(=O)[C@H](CC(N)=O)NC(=O)c1ccc2ccccc2n1,-0.48

# Set 2 — observed: cell-free assay; technique: competition with immobilised ligand; concentration: 1 µM
# Structure (SMILES): CN(c1ccnc(CNc2nc(Nc3ccc4c(c3)CC(=O)N4)ncc2C(F)(F)F)n1)S(C)(=O)=O
target,remaining binding [%]
"Phosphatidylinositol 4,5-bisphosphate 3-kinase catalytic subunit gamma isoform (PIK3CG, Homo sapiens, UniProt P48736)",100
"Ephrin type-A receptor 6 (EPHA6, Homo sapiens, UniProt Q9UF33)",85
"Serine/threonine-protein kinase tousled-like 1 (TLK1, Homo sapiens, UniProt Q9UKI8)",79
"G protein-coupled receptor kinase 4 (GRK4, Homo sapiens, UniProt P32298)",10
"Tyrosine-protein kinase ABL1, phosphorylated (ABL1, Homo sapiens, UniProt P00519, F317L)",84
"Activin receptor type-1 (ACVR1, Homo sapiens, UniProt Q04771)",91
"Ephrin type-A receptor 3 (EPHA3, Homo sapiens, UniProt P29320)",72

# Set 3 — observed: enzyme activity; action: inhibitor; concentration: 0.5 µM; baseline: control
# Target: Insulin-like growth factor 1 receptor (IGF1R, Homo sapiens, UniProt P08069)
# Chain of UniProt P08069 (whole entry, looked up): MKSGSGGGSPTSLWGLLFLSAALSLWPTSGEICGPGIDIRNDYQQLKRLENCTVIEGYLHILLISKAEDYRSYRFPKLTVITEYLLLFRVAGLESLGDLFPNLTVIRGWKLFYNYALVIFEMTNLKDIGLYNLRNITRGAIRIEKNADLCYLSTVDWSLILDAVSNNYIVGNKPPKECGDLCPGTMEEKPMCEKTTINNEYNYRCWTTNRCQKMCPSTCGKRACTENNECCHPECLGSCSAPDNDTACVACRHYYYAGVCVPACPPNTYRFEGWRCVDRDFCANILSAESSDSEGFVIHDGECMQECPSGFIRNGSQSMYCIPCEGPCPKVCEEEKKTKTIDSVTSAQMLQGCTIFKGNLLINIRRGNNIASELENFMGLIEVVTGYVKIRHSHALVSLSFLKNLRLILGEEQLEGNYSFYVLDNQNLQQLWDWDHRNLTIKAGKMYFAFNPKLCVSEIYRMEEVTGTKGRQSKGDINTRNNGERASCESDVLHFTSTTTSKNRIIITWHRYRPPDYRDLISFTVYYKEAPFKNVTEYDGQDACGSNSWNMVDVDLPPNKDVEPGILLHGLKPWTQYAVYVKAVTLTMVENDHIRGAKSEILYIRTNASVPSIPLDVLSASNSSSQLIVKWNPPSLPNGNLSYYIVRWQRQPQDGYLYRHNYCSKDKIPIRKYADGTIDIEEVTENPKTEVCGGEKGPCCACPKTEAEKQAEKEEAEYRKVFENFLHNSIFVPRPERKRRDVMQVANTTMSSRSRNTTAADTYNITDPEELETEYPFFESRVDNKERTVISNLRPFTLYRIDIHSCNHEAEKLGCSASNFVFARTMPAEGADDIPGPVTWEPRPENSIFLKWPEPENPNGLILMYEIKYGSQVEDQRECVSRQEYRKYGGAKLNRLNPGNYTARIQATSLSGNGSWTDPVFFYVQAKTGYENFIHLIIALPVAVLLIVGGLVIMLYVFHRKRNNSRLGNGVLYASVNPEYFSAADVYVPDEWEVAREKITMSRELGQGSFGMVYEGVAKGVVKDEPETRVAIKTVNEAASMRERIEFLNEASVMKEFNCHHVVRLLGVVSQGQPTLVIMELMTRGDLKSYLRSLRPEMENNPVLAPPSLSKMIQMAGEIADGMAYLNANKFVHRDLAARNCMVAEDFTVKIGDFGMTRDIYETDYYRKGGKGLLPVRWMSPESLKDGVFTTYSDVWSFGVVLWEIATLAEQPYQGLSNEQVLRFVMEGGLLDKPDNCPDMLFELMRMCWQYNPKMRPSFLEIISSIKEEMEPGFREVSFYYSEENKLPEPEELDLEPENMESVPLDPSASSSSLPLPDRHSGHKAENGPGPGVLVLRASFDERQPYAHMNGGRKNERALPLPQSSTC
Structure (SMILES),remaining activity [%]
O=C(CCCc1ccc(-c2ccccc2F)cc1)Nc1ccc(O)cc1,106
C#Cc1cccc(Nc2ncnc3cc(OCCOC)c(OCCOC)cc23)c1,91.6
Cn1sc(=O)n(Cc2ccccc2)c1=O,97.1
O=S(=O)(c1cccc2cnccc12)N1CCCNCC1,112
Oc1ccc(-c2nc(-c3ccncc3)c(-c3ccc(F)cc3)[nH]2)cc1,108
N#CC(C#N)=C(N)/C(C#N)=C/c1ccc(O)cc1,90.6
COc1ccc(OC)c2c(=S)c3ccccc3[nH]c12,97.2
O=C(O)c1ccc2c3c1cccc3c(=O)n1c3ccccc3nc21,100
OCC(O)CCON=C1C(c2c(O)[nH]c3ccccc23)=Nc2ccccc21 (stereo not drawn),39.1
Cc1cccc(-c2[nH]c(C(C)(C)C)nc2-c2ccc3c(c2)OCO3)n1,96.2
O=C1NC(=O)C(c2cn(CCCO)c3ncccc23)=C1c1cnccn1,98.4
Cn1c2ccccc2c2c3c(c4c5ccccc5n(CCC#N)c4c21)CNC3=O,98.3
COc1ccc(C(=O)Nc2sc3c(c2C(N)=O)CCCC3)cc1OC,97.7
Cc1ccc(NC(=O)c2ccc(CN3CCN(C)CC3)cc2)cc1Nc1nc(-c2cccnc2)cs1,101
CO[C@H]1C[C@@H]2CC[C@@H](C)[C@@](O)(O2)C(=O)C(=O)N2CCCC[C@H]2C(=O)O[C@H]([C@H](C)C[C@@H]2CC[C@@H](O)[C@H](OC)C2)CC(=O)[C@H](C)/C=C(\C)[C@@H](O)[C@@H](OC)C(=O)[C@H](C)C[C@H](C)/C=C/C=C/C=C/1C,112

# Set 4
# SMILES: Cc1cc2c(C(N)=O)c(N)n(-c3c(C)ccc(O)c3C)c2nc1C
target or system,test,conditions,inhibition
"Serine/threonine-protein kinase B-raf (BRAF, Homo sapiens, UniProt P15056)","kinase activity, ADP-Glo",0.3704 µM,84.5%
"Proto-oncogene tyrosine-protein kinase Src (SRC, Homo sapiens, UniProt P12931)","kinase activity, inhibitor, HTRF",0.0005081 µM,7.78%
MKN-1,cell proliferation,4.572 nM,2.17% and 2.9% and 5.61%

# A few entries again (set 2):
target,remaining binding [%]
"Phosphatidylinositol 4,5-bisphosphate 3-kinase catalytic subunit gamma isoform (PIK3CG, Homo sapiens, UniProt P48736)",100
"Ephrin type-A receptor 6 (EPHA6, Homo sapiens, UniProt Q9UF33)",85
"Serine/threonine-protein kinase tousled-like 1 (TLK1, Homo sapiens, UniProt Q9UKI8)",79
"G protein-coupled receptor kinase 4 (GRK4, Homo sapiens, UniProt P32298)",10
